{"data": "Assay results pooled from the literature", "note": "Each line is one published result; not all experiments were run side by side. “And” joins repeats or separate records; there may be more than shown. Numbers after ± are the reported error."}
{"Substance": "VPAFIFGQL", "assay": "CD8 T cell response", "test system": "peptide, naive splenocytes as APCs, mouse", "setting": "2 µg/mL, 48 h", "endpoint": "IFN-γ ELISpot response", "value": "negative"}
{"Substance": "human immunoglobulin gamma-1 constant", "assay": "co-immunoprecipitation", "test system": "human RBC membrane", "setting": "no crosslinker, unit not given, together with: Band 3 peptide 1-56 bait", "scale": "relative to: negative control", "endpoint": "co-IP enrichment", "value": 0}
{"Substance": "lysophosphatidic acid", "test system": "mouse small intestinal enteroids", "setting": "concentration not given, applied post-irradiation", "endpoint": "enteroid survival", "value": "no effect"}
{"Substance": "somatropin", "test system": "Turner syndrome patients", "setting": "dose not given, median 4 years, median", "endpoint": "height at last follow-up", "value": "141 cm"}
{"Substance": "semaglutide", "test system": "DIO male Wistar rats", "setting": "dose not given, 7 weeks", "endpoint": "fasting plasma insulin", "value": "10.6 ± 1.4 ng/mL"}
{"Substance": "colistin", "tested on": "Pseudomonas aeruginosa", "assay": "broth microdilution", "test system": "clinical isolate RKI-No_584/15", "endpoint": "MIC", "value": "1 mg/L"}
{"Substance": "insulin aspart", "assay": "euglycaemic clamp", "test system": "human, type 1 diabetes", "setting": "subcutaneous, 0.3 U/kg, geometric mean", "endpoint": "glucose infusion rate AUC(0-4h)", "value": "1630 mg/kg"}
{"Substance": "CpG-ODN 1826", "test system": "mouse B16-F10 tumour, tumour", "setting": "dose not given, day 8", "scale": "relative to: control", "endpoint": "LAG-3+ CD4 T cells", "value": "no effect"}
{"Substance": "RFLRFQQEL", "assay": "CD8 T cell response", "test system": "peptide, naive splenocytes as APCs, mouse", "setting": "2 µg/mL, 48 h", "endpoint": "IFN-γ ELISpot response", "value": "negative"}
{"Substance": "CCT3", "assay": "co-immunoprecipitation", "test system": "human plasma", "setting": "unit not given, together with: Band 3 peptide 1-56 bait", "scale": "relative to: negative control", "endpoint": "co-IP enrichment", "value": 0}
{"Substance": "insulin detemir", "assay": "self-monitoring", "test system": "type 2 diabetic patients", "setting": "dose not given, one-week bedtime treatment", "endpoint": "mean blood glucose", "value": "130 ± 15 mg/dL"}
{"Substance": "cotadutide", "test system": "C57BL/6J mouse, AMLN diet NASH model", "setting": "dose not given, terminal", "endpoint": "plasma insulin", "value": "0.6 ± 0.1 ng/mL"}
{"Substance": "insulin", "test system": "women with gestational diabetes", "setting": "dose not given, metformin-treated group, median", "endpoint": "newborn birth weight", "value": "2.96 kg"}
{"Substance": "difelikefalin", "test system": "Japanese haemodialysis patients with pruritus", "setting": "intravenous, 0.5 µg/kg, 8 weeks", "endpoint": "PGIC minimally worse", "value": "1.7%"}
{"Substance": "maraviroc", "assay": "ELISA, measured: sRAGE", "test system": "mouse, non-infected, serum", "setting": "dose not given", "endpoint": "serum level", "value": "102 ± 2.21 ng/mL"}
{"Substance": "Pam2CSK4", "test system": "APP/PS1 mouse, cortex", "setting": "local injection, dose not given, unit not given", "scale": "relative to: injected over adjacent side", "endpoint": "Iba1 level", "value": "8.48 and 4.74"}
{"Substance": "LPVGGFWSL", "assay": "CD8 T cell response", "test system": "peptide, naive splenocytes as APCs, mouse", "setting": "2 µg/mL, 48 h", "endpoint": "IFN-γ ELISpot response", "value": "negative"}
{"Substance": "FKBP12", "assay": "co-immunoprecipitation", "test system": "human RBC membrane", "setting": "DMTMM crosslinker, unit not given, together with: Band 3 peptide 1-56 bait", "scale": "relative to: negative control", "endpoint": "co-IP enrichment", "value": 0}
{"Substance": "GSGAGQITKV", "tested on": "human SCRIB PDZ3-4 tandem (MBP fusion)", "assay": "automated holdup", "test system": "peptide, crude extract", "setting": "concentration not given, corrected by standard peak, unit not given", "scale": "relative to: biotin control resin, higher = stronger binding", "endpoint": "binding intensity", "value": 0.0701}
{"Substance": "MTVCNASQRQAHAQATAVSL", "assay": "phage binding", "test system": "peptide, panel of 11 cancer lines", "setting": "selectivity at least 20", "endpoint": "number of cell lines", "value": 2}
{"Substance": "insulin aspart", "assay": "euglycemic clamp", "test system": "Japanese type 1 diabetes patients", "setting": "subcutaneous, 0.2 U/kg single, up to 12 h, least squares mean", "endpoint": "AUC(GIR,0-t)", "value": "1100 mg/kg"}
{"Substance": "human alpha-enolase", "assay": "co-immunoprecipitation", "test system": "human RBC membrane", "setting": "DMTMM crosslinker, unit not given, together with: Band 3 peptide 1-56 bait", "scale": "relative to: negative control", "endpoint": "co-IP enrichment", "value": 0}
{"Substance": "YEQDPWGVKWWY", "test system": "peptide, mouse, CP model, serum", "setting": "0.154 µmol/kg, 4 weeks", "scale": "relative to: untreated CP mice", "endpoint": "serum IL-3", "value": "inhibited"}
{"Substance": "insulin degludec", "assay": "euglycaemic hyperinsulinaemic clamp", "test system": "healthy Chinese male humans", "setting": "subcutaneous, 0.4 IU/kg, 24 h, 2 FC level, single dose, reference formulation", "endpoint": "maximum glucose infusion rate", "value": "2.49 ± 0.71 mg/kg/min"}
{"Substance": "USP14", "assay": "co-immunoprecipitation", "test system": "human RBC membrane", "setting": "DSSO crosslinker, unit not given, together with: Band 3 peptide 1-56 bait", "scale": "relative to: negative control", "endpoint": "co-IP enrichment", "value": 391}
{"Substance": "GPVSRSVEM", "assay": "CD8 T cell response", "test system": "peptide, naive splenocytes as APCs, mouse", "setting": "2 µg/mL, 48 h", "endpoint": "IFN-γ ELISpot response", "value": "negative"}
{"Substance": "KCNTATCATQRLANFLVHSSNNFGPILPPTNVGSNTY (Pramlintide; sequence looked up)", "assay": "ELISA", "test system": "peptide, Tg2576 mouse, brain extract", "setting": "intraperitoneal, dose not given, 10 weeks daily", "endpoint": "Aβ1-40 level", "value": "905 ± 132 pg/10 µg protein"}
{"Substance": "CCT4", "assay": "co-immunoprecipitation", "test system": "human RBC cytosol", "setting": "unit not given, together with: Band 3 peptide 1-56 bait", "scale": "relative to: negative control", "endpoint": "co-IP enrichment", "value": 0}
{"Substance": "glucagon", "test system": "mouse", "setting": "dose not given, 3 h", "endpoint": "plasma free fatty acids", "value": "0.479 mmol/L and 0.505 mmol/L and 0.448 mmol/L and 0.604 mmol/L and 0.297 mmol/L"}
{"Substance": "MYKQELDDI", "assay": "CD8 T cell response", "test system": "peptide, naive splenocytes as APCs, mouse", "setting": "2 µg/mL, 48 h", "endpoint": "IFN-γ ELISpot response", "value": "negative"}
{"Substance": "VMRLQSETSV", "tested on": "human SCRIB PDZ3-4 tandem (MBP fusion)", "assay": "automated holdup", "test system": "peptide, crude extract", "setting": "concentration not given, corrected by standard peak, unit not given", "scale": "relative to: biotin control resin, higher = stronger binding", "endpoint": "binding intensity", "value": 0.813}
{"Substance": "MPLTLGTNV", "assay": "CD8 T cell response", "test system": "peptide, naive splenocytes as APCs, mouse", "setting": "2 µg/mL, 48 h", "endpoint": "IFN-γ ELISpot response", "value": "negative"}
{"Substance": "thimet oligopeptidase", "assay": "co-immunoprecipitation", "test system": "human plasma", "setting": "unit not given, together with: Band 3 peptide 1-56 bait", "scale": "relative to: negative control", "endpoint": "co-IP enrichment", "value": 0}
{"Substance": "insulin aspart", "assay": "euglycaemic glucose clamp", "test system": "human, younger adults with type 1 diabetes", "setting": "subcutaneous, 0.2 U/kg", "endpoint": "AUC of glucose infusion rate", "value": "1200 mg/kg"}
{"Substance": "tripeptidyl peptidase 2", "assay": "co-immunoprecipitation", "test system": "human RBC cytosol", "setting": "DMTMM crosslinker, unit not given, together with: Band 3 peptide 1-56 bait", "scale": "relative to: negative control", "endpoint": "co-IP enrichment", "value": 1900}
{"Substance": "Peginesatide", "tested on": "UT7/EPO", "assay": "tyrosine phosphorylation, LC-MS/MS phosphoproteomics, GluC, measured: PIK3R1 tyrosine 607", "setting": "10 nM, 15 min, together with: 10 U/mL EPO", "scale": "relative to: vehicle", "endpoint": "phosphorylation level", "value": "2.9 fold"}
{"Substance": "SFHLTQTDL", "assay": "CD8 T cell response", "test system": "peptide, naive splenocytes as APCs, mouse", "setting": "2 µg/mL, 48 h", "endpoint": "IFN-γ ELISpot response", "value": "negative"}
{"Substance": "liraglutide", "test system": "Wistar rat, female, diet-induced obese", "setting": "dose not given, 5 days baseline before treatment", "endpoint": "food intake", "value": "72.1 ± 5.2 kcal/day"}
{"Substance": "SSPGMSQEV", "assay": "CD8 T cell response", "test system": "peptide, naive splenocytes as APCs, mouse", "setting": "2 µg/mL, 48 h", "endpoint": "IFN-γ ELISpot response", "value": "negative"}
{"Substance": "heparin sodium", "assay": "measured: activated partial thromboplastin time", "test system": "human healthy volunteers", "setting": "intravenous infusion, 8 IU/kg/h", "scale": "relative to: baseline", "endpoint": "maximum aPTT ratio", "value": 1.12}
{"Substance": "calcium", "assay": "ion current, two-electrode voltage clamp", "test system": "Xenopus oocytes", "setting": "1.8 mM, -80 mV, together with: niflumic acid present", "endpoint": "desensitization time constant", "value": "14.9 s and 4.59 s and 13.1 s and 7.54 s and 18.5 s"}
